Measurements from different studies.
Protocols differ between the studies behind these lines. Numbers after ± are the reported error.

C[C@@H](O)[C@@H]1NC(=O)[C@H](CCCCN)NC(=O)[C@@H](Cc2c[nH]c3ccccc23)NC(=O)[C@H](Cc2ccc(O)cc2)NC(=O)[C@@H](NC(=O)[C@@H](Cc2ccccc2)NC(=O)CN2CCN(CC(=O)O)CCN(CC(=O)O)CCN(CC(=O)O)CC2)CSSC[C@@H](C(=O)N[C@H](CO)[C@@H](C)O)NC1=O [gallium-67 labelled]
tissue uptake (male ICR mouse, intestine; intravenous, 11 kBq, 3 h, radiolabelled): 4.47 ± 0.54 %ID

CC(C)C[C@H](NC(=O)[C@@H](CCCCNC(=O)[C@@H](Cc1ccccc1)NC(=O)CCCCCNC(=O)CN1CCN(CC(=O)O)CCN(CC(=O)O)CCN(CC(=O)O)CC1)NC(=O)[C@H](Cc1ccc(O)cc1)NC(=O)[C@H](CO)NC(=O)[C@H](Cc1c[nH]c2ccccc12)NC(=O)[C@H](Cc1c[nH]cn1)NC(=O)[C@@H]1CCC(=O)N1)C(=O)N[C@@H](CCCNC(=N)N)C(=O)N1CCC[C@H]1C(=O)NCC(N)=O [indium-111 labelled]
tissue uptake (athymic nude mouse, female, intestines; intravenous, 0.037 MBq, 0.5 h): 2.81 ± 1.42 %ID

C=C(NC(=O)c1csc(-c2nc3c(cc2O)-c2nc(cs2)C(=O)NC(C(C)O)C(=O)NC(=C(C)OC)c2nc(cs2)C(=O)NC2c4nc(cs4)C(=O)NC(COC(=O)c4c5c6c(cccc6n4O)COC(=O)C(OC4CC(C)(O)C(N(C)C)C(C)O4)C2OC5)c2nc-3cs2)n1)C(N)=O (stereo not drawn)
half-life (ICR mice, Streptococcus pneumoniae ATCC 49169 infected, immunocompromised, blood; intravenous, 32 mg/kg/day twice daily): 7.43 h

CCCC[C@H](NC(=O)COCCOCCNC(=O)CN1CCN(CC(=O)O)CCN(CC(=O)O)CC1)C(=O)N[C@H]1CC(=O)NCCCC[C@@H](C(N)=O)NC(=O)[C@H](Cc2c[nH]c3ccccc23)NC(=O)[C@H](CCCNC(=N)N)NC(=O)[C@@H](Cc2ccccc2)NC(=O)[C@H](Cc2c[nH]cn2)NC1=O [technetium-99m labelled]
tissue uptake (C57 mouse, pancreas; intravenous, 0.037 MBq, 2 h): 0.06 ± 0.07 %ID/g

COC1CN([C@H]2CC[C@H]([C@@]3(C)Oc4c(Cl)cc(C(=O)NCc5c(SC)cc(C)[nH]c5=O)c(C)c4O3)CC2)C1
log2 fold change (RNA-seq, refers to: MAGI2 mouse homolog; mouse, HT-1376 xenograft, whole blood; dose not given; reference: vehicle): 0.491

CC(C)C[C@@H](NC(=O)[C@@H](CC(C)C)NC(=O)[C@@H](CC(=O)O)NC(=O)[C@@H](CC(C)C)NC(=O)[C@@H](CC(C)C)NC(=O)[C@@H](CC(C)C)NC(=O)[C@H](NC(=O)[C@@H](CC(=O)O)NC(=O)[C@H](NC(=O)[C@H]1CCCN1C(=O)[C@@H](Cc1ccccc1)NC(=O)[C@@H](CC(C)C)NC(=O)[C@@H](CC(C)C)NC(=O)[C@@H](CC(=O)O)NC(=O)[C@@H](CC(C)C)NC(=O)[C@@H](Cc1ccc(O)cc1)NC(=O)[C@@H](C)NC(=O)[C@@H](CCCNC(=N)N)NC(=O)[C@@H](Cc1c[nH]c2ccccc12)NC(=O)[C@H]1CCCN1C(=O)[C@@H](CC(N)=O)NC(=O)[C@@H](CCC(N)=O)NC(=O)[C@@H](CC(=O)O)NC(=O)[C@@H](CC(=O)O)NC(=O)[C@@H](CSC1CC(=O)N(CCNC(=O)CN2CCN(CC(=O)O)CCN(CC(=O)O)CC2)C1=O)NC(=O)[C@@H](C)N)[C@H](C)O)[C@H](C)O)C(=O)N[C@H](Cc1c[nH]c2ccccc12)C(=O)O (stereo partly drawn) [copper-64 labelled]
tissue uptake (C57BL/6 mice, female, B16-F10 melanoma, blood; intravenous, 1 h): 28.4 %ID/g

C=CC(=O)Nc1cccc(Cn2ncc3cnc(Nc4cnn(CCOC)c4)nc32)c1
percent of control (PIK3C2G human; binding, KINOMEscan; 100 nM; lower = stronger binding): 72%

C[C@@H](O)[C@@H]1NC(=O)[C@H](CCCCN)NC(=O)[C@@H](Cc2c[nH]c3ccccc23)NC(=O)[C@H](Cc2ccc(O)cc2)NC(=O)[C@@H](NC(=O)[C@@H](Cc2ccccc2)NC(=O)CN2CCN(CC(=O)O)CCN(C(=O)CCNC(=O)c3ncn4c(=O)n(C)nnc34)CCN(CC(=O)O)CC2)CSSC[C@@H](C(=O)N[C@H](CO)[C@@H](C)O)NC1=O [gallium-68 labelled]
tissue uptake (ex vivo gamma counting; mouse, HCT116-WT/SSTR2 xenografts, HCT116-SSTR2 tumour; intravenous, 2 nmol, 1 h): 5.92 ± 0.82 %ID/g

CC(C)C[C@H](NC(=O)[C@@H](CCCCNC(=O)CCCCCCCCCCNC(=O)CN1CCN(CC(=O)O)CCN(CC(=O)O)CCN(CC(=O)O)CC1)NC(=O)[C@H](Cc1ccc(O)cc1)NC(=O)[C@H](CO)NC(=O)[C@H](Cc1c[nH]c2ccccc12)NC(=O)[C@H](Cc1cnc[nH]1)NC(=O)[C@@H]1CCC(=O)N1)C(=O)N[C@@H](CCCN=C(N)N)C(=O)N1CCC[C@H]1C(=O)NCC(N)=O [indium-111 labelled]
tissue uptake (athymic nude mouse, female, intestines; intravenous, 0.037 MBq, 4 h): 2.07 ± 0.18 %ID

CCCC[C@H](NC(=O)CCCCCCCNC(=O)CN1CCN(CC(=O)O)CCN(CC(=O)O)CC1)C(=O)N[C@H]1CC(=O)NCCCC[C@@H](C(N)=O)NC(=O)[C@H](Cc2c[nH]c3ccccc23)NC(=O)[C@H](CCCNC(=N)N)NC(=O)[C@@H](Cc2ccccc2)NC(=O)[C@H](Cc2c[nH]cn2)NC1=O [technetium-99m labelled]
tissue uptake (C57 mouse, heart; intravenous, 0.037 MBq, 0.5 h): 0.81 ± 0.19 %ID/g

Cc1cc(-c2ccc(NC(=O)CC[C@H](NC(=O)CN3CCN(CC(=O)O)CCN(CC(=O)O)CCN(CC(=O)O)CC3)C(=O)NCC(=O)N[C@@H](CC(N)=O)C(=O)N[C@H](C(=O)N[C@H](C(=O)N[C@@H](CCCNC(=N)N)C(=O)N[C@@H](CCC(N)=O)C(=O)O)C(C)C)C(C)C)c(C)c2)ccc1/N=N/c1ccc2c(S(=O)(=O)O)cc(S(=O)(=O)O)c(N)c2c1O [copper-64 labelled]
tissue uptake (nude mouse, 143B xenograft, tumour; intravenous, 8 h): 6.5 ± 0.88 %ID/g

Cc1ncsc1-c1ccc(C(C)NC(=O)C2CC(O)CN2C(=O)C(NC(=O)CCCCCCCCCCN2CCCC(Nc3ncc(Cl)c(Nc4ccccc4S(=O)(=O)C(C)C)n3)C2)C(C)(C)C)cc1 (stereo not drawn)
log2 fold change (22Rv1; RNA-seq, refers to: ZMIZ1 mRNA; concentration not given; reference: DMSO): -1.35

A few entries again:
C[C@@H](O)[C@@H]1NC(=O)[C@H](CCCCN)NC(=O)[C@@H](Cc2c[nH]c3ccccc23)NC(=O)[C@H](Cc2ccc(O)cc2)NC(=O)[C@@H](NC(=O)[C@@H](Cc2ccccc2)NC(=O)CN2CCN(CC(=O)O)CCN(C(=O)CCNC(=O)c3ncn4c(=O)n(C)nnc34)CCN(CC(=O)O)CC2)CSSC[C@@H](C(=O)N[C@H](CO)[C@@H](C)O)NC1=O [gallium-68 labelled]
tissue uptake (ex vivo gamma counting; mouse, HCT116-WT/SSTR2 xenografts, HCT116-SSTR2 tumour; intravenous, 2 nmol, 1 h): 5.92 ± 0.82 %ID/g

COC1CN([C@H]2CC[C@H]([C@@]3(C)Oc4c(Cl)cc(C(=O)NCc5c(SC)cc(C)[nH]c5=O)c(C)c4O3)CC2)C1
log2 fold change (RNA-seq, refers to: MAGI2 mouse homolog; mouse, HT-1376 xenograft, whole blood; dose not given; reference: vehicle): 0.491
